Measurements collected from several papers.
Each line is one published result; not all experiments were run side by side. Several values in a cell are separate wells, animals, samples, runs or records. ± marks the error that the study gave.

`CC(C)[C@H](NC(=O)[C@@H](NC(=O)[C@H](CCCNC(=N)N)NC(=O)[C@H](CCCNC(=N)N)NC(=O)[C@H](CCCNC(=N)N)NC(=O)[C@H](CCC(N)=O)NC(=O)[C@H](CCCNC(=N)N)NC(=O)[C@H](CCCNC(=N)N)NC(=O)[C@H](CCCCN)NC(=O)[C@H](CCCCN)NC(=O)[C@H](CCCNC(=N)N)NC(=O)CN)[C@@H](C)O)C(=O)N[C@H](C(=O)N[C@@H](CO)C(=O)N1CCC[C@H]1C(=O)O)[C@@H](C)O` has an organ weight of 1.76 ± 0.231 g (ICR mice, male, liver; intranasal, 10 mg/kg daily, 4 weeks).
For `COc1cnc2cccc(N3CCc4c(cc(Cn5ccnc5)cc4-c4cn(C)nc4C(F)(F)F)C3=O)c2c1`, the body weight was 22.2 g and 26.2 g and 22 g and 23.7 g and 23.6 g and 23.2 g and 22.4 g and 22.5 g (BALB/c nude mice, MV4-11 xenograft; intraperitoneal, 75 mg/kg, day 31).
For `CC(C)C[C@H](NC(=O)CNC(=O)[C@H](Cc1ccccc1)NC(=O)[C@@H](NC(=O)[C@@H](NC(=O)c1cccc(S(=O)(=O)F)c1)[C@@H](C)O)C(C)C)C(=O)N[C@@H](CC(N)=O)C(=O)N[C@H](C(=O)N[C@@H](Cc1c[nH]c2ccccc12)C(=O)N[C@@H](CCCCN)C(=O)N[C@@H](CCCNC(=N)N)C(=O)N[C@@H](Cc1ccc(O)cc1)C(=O)N[C@@H](CO)C(=O)N[C@@H](CCCCN)C(=O)NCC(=O)N[C@@H](CCCCNc1ccc([N+](=O)[O-])cc1[N+](=O)[O-])C(N)=O)C(C)C`, “intact compound remaining” read ~50% (chemical stability, LC-MS, UV trace; PBS/DMSO/water; 52 µM, 24 h, 10% DMSO, 80% water).
For `CN1Cc2cc(Cl)ccc2-n2c(nnc2C2CCN(c3cccc([18F])n3)CC2)C1`, the tissue uptake was 11.6 ± 4.48 %ID/g (C57BL/6 mouse male, heart; intravenous, 3.7 MBq, 1 min).
`CC[C@H](C)[C@H](NC(=O)[C@H](CCCNC(=N)N)NC(=O)[C@H](CCCCN)NC(=O)[C@H](Cc1ccc(O)cc1)NC(=O)[C@H](CC(=O)O)NC(=O)[C@H](C)NC(=O)CNC(=O)CCOCCOCCOCCNC(=O)CN1CCN(CC(=O)O)CCN(CC(=O)O)CCN(CC(=O)O)CC1)C(=O)N[C@H](C(=O)N[C@H](C(=O)N[C@@H](CCCCN)C(=O)N[C@H](C(=O)N[C@@H](CC(N)=O)C(N)=O)C(C)C)C(C)C)[C@@H](C)O` [copper-64 labelled] gave a tissue uptake of 1.54 ± 0.083 %ID/g (ex vivo gamma counting; C57BL/6J male mice, B16-F10 tumour, bone; intravenous, 1.85 MBq, 5 min).
For `CC(C)[C@@H]1NC(=O)CNC(=O)[C@H](CC(N)=O)NC(=O)[C@H](CCCNC(=N)N)NC(=O)[C@H](Cc2ccc(O)cc2)NC(=O)[C@H](C(C)C)NC(=O)[C@@H](NC(=O)[C@@H](NC(=O)[C@H](CC(N)=O)NC(=O)[C@H](Cc2c[nH]c3ccccc23)NC(=O)[C@H](C)NC(=O)[C@H](Cc2ccccc2)NC(=O)CNC(=O)[C@H](CCCCN)NC(=O)[C@H](Cc2ccccc2)NC(=O)[C@H](Cc2ccccc2)NC(=O)[C@H](CCCCN)NC(=O)OCC2c3ccccc3-c3ccccc32)C(C)C)CSSC[C@@H](C(=O)N[C@@H](Cc2c[nH]cn2)C(=O)N[C@@H](CCCNC(=N)N)C(=O)N[C@@H](CCCNC(=N)N)C(=O)N[C@@H](C)C(=O)N[C@@H](CC(N)=O)C(N)=O)NC(=O)[C@H](C(C)C)NC(=O)[C@H](CCCNC(=N)N)NC1=O`, “blood urea nitrogen” read 10.7 ± 41 mmol/L (ICR mice, serum; intraductal mammary, 10 mg/kg, day 5).
With `O=C1NC2(CC2)COc2ncc(F)cc2[C@H]2COCCN2c2ccn3ncc1c3n2` the APTT was 14.1 ± 1.1 s (Sprague-Dawley rats, female, blood; oral, 5 mg/kg/day, end of recovery, 4-week subacute toxicity).
With `CCOc1ccccc1-n1c(CN2CCNCC2)nc2ccccc2c1=O` the AUC(0-t) was 2.12 µM·h (C57BL/6 mouse, male, plasma; oral, 6 mg/kg).
For `Cc1ccccc1-c1ccc(-c2nc(-c3ccc(CN(C)CCCC(=O)O)c([18F])c3)no2)cc1C(F)(F)F`, the tracer uptake was 0.06 %ID/g (rat, blood; 1 h).
For `[2H]C([2H])([18F])[C@]([2H])(N)C(=O)O`, the blood half-life was 0.59 min (dynamic PET; U-87 MG tumour-bearing mice, blood).
The tissue uptake of `CSCC[C@H](NC(=O)CNC(=O)[C@H](CCCCN)NC(=O)[C@H](CC(C)C)NC(=O)[C@@H]1CCCN1C(=O)[C@H](CO)NC(=O)[C@H](Cc1c[nH]cn1)NC(=O)[C@H](Cc1c[nH]c2ccccc12)NC(=O)[C@H](CCCNC(=N)N)NC(=O)[C@H](CC(C)C)NC(=O)[C@H](CCCNC(=N)N)NC(=O)[C@H](Cc1c[nH]c2ccccc12)NC(=O)[C@H](CS)NC(=O)CCCCCNC(=O)CN1CCN(CC(=O)O)CCN(CC(=O)O)CCN(CC(=O)O)CC1)C(=O)O` [copper-64 labelled] is reported as 1.31 %ID/g (ex vivo biodistribution; C57BL/6J mice bearing B16-F10 tumours, thymus; intravenous, 1.85 MBq, 18 h).
For `COc1ccnc(C(=O)N[C@H]2COC(=O)[C@H](Cc3ccccc3)[C@@H](OC(=O)C(C)C)[C@H](C)OC2=O)c1O`, the LD50 was > 2000 mg/kg (rat; oral).
Under “glucuronide to parent ratio”, `CC(CCC(=O)NCC(=O)O)C1CCC2C3CCC4CC(OC5OC(C(=O)O)C(O)C(O)C5O)CCC4(C)C3CC(O)C12C` (centres unmarked) is recorded as 0.593 (men, T/T genotype, plasma; dose not given, geometric mean).
`N#[11C]c1ccc(-c2csc(NN=C3CCCC3)n2)cc1`: “uptake in stomach with contents” 7.9 ± 1.53 %ID/g (C57BL/6 mouse, male; intravenous, 3 MBq, 30 min).
`CC(C)(CCCC/C=C/CCCCCC(C)(C)C(=O)O)C(=O)O` has a plasma concentration of 6900 ng/mL (beagle dog, both sexes; oral, dose not given, 24 h).
`CSCC[C@H](N)C(=O)N[C@@H](C)C(=O)N[C@@H](Cc1c[nH]c2ccccc12)C(=O)N[C@@H](Cc1c[nH]cn1)C(=O)N[C@@H](CC(=O)O)C(=O)N[C@@H](CC(=O)O)C(=O)N[C@@H](CCC(=O)O)C(=O)N[C@@H](CCC(=O)O)C(=O)N[C@@H](Cc1ccccc1)C(=O)N[C@@H](C)C(=O)N[C@@H](CCCNC(=N)N)C(=O)N[C@@H](CCCNC(=N)N)C(=O)N[C@@H](CCCNC(=N)N)C(=O)N[C@@H](CCCNC(=N)N)C(=O)NCCCCCC(=O)NCCCCC(NC(=O)CCCCCNC(=O)[C@H](CCCNC(=N)N)NC(=O)[C@H](CCCNC(=N)N)NC(=O)[C@H](CCCNC(=N)N)NC(=O)[C@H](CCCNC(=N)N)NC(=O)[C@H](C)NC(=O)[C@H](Cc1ccccc1)NC(=O)[C@H](CCC(=O)O)NC(=O)[C@H](CCC(=O)O)NC(=O)[C@H](CC(=O)O)NC(=O)[C@H](CC(=O)O)NC(=O)[C@H](Cc1c[nH]cn1)NC(=O)[C@H](Cc1c[nH]c2ccccc12)NC(=O)[C@H](C)NC(=O)[C@@H](N)CCSC)C(=O)NCCCCC(NC(=O)C(CCCCNC(=O)CCCCCNC(=O)[C@H](CCCNC(=N)N)NC(=O)[C@H](CCCNC(=N)N)NC(=O)[C@H](CCCNC(=N)N)NC(=O)[C@H](CCCNC(=N)N)NC(=O)[C@H](C)NC(=O)[C@H](Cc1ccccc1)NC(=O)[C@H](CCC(=O)O)NC(=O)[C@H](CCC(=O)O)NC(=O)[C@H](CC(=O)O)NC(=O)[C@H](CC(=O)O)NC(=O)[C@H](Cc1c[nH]cn1)NC(=O)[C@H](Cc1c[nH]c2ccccc12)NC(=O)[C@H](C)NC(=O)[C@@H](N)CCSC)NC(=O)CCCCCNC(=O)[C@H](CCCNC(=N)N)NC(=O)[C@H](CCCNC(=N)N)NC(=O)[C@H](CCCNC(=N)N)NC(=O)[C@H](CCCNC(=N)N)NC(=O)[C@H](C)NC(=O)[C@H](Cc1ccccc1)NC(=O)[C@H](CCC(=O)O)NC(=O)[C@H](CCC(=O)O)NC(=O)[C@H](CC(=O)O)NC(=O)[C@H](CC(=O)O)NC(=O)[C@H](Cc1c[nH]cn1)NC(=O)[C@H](Cc1c[nH]c2ccccc12)NC(=O)[C@H](C)NC(=O)[C@@H](N)CCSC)C(N)=O` (some centres unmarked) gave a tissue distribution of 0.48% and 0.61% and 0.46% (C57BL/6 mouse female, brain; dose not given, 3 h; baseline: total).
`CC[C@H](C)[C@@H]1NC(=O)[C@H](CO)NC(=O)CC(CCCCN)NC(=O)[C@@H]2CSSC[C@@H](C(=O)N[C@@H](Cc3ccc(O)cc3)C(N)=O)NC(=O)[C@H](CCCCN)NC(=O)[C@@H]3CSSC[C@H](NC(=O)[C@H](CCCNC(=N)N)NC(=O)CC(CC(C)C)NC(=O)[C@H](CC(=O)O)NC(=O)[C@H](CC(=O)O)NC(=O)[C@H](CCC(=O)O)NC(=O)[C@H](CC(N)=O)NC(=O)[C@H](Cc4c[nH]c5ccccc45)NC(=O)[C@@H]4CCCN4C(=O)CNC(=O)[C@H](CC(N)=O)NC(=O)[C@@H](NC(=O)CNC(=O)[C@H](Cc4ccccc4)NC(=O)CN)CSSC[C@H](NC(=O)[C@H](Cc4ccc(O)cc4)NC(=O)CNC(=O)CNC(=O)[C@H](CCCCN)NC(=O)[C@H](Cc4ccc(O)cc4)NC(=O)CNC(=O)[C@H](CCCCN)NC1=O)C(=O)N[C@@H](C)C(=O)N[C@@H](CCCCN)C(=O)NCC(=O)NCC(=O)N[C@@H](Cc1ccccc1)C(=O)N[C@@H](C(C)C)C(=O)N3)C(=O)N[C@@H](Cc1c[nH]cn1)C(=O)NC(CC(N)=O)CC(=O)N[C@@H](Cc1c[nH]cn1)C(=O)N2` (some centres unmarked) gave a half-life of 5.4 min (HPLC; trypsin digestion; 13.2 µM, pH 8.5, room temperature, added: trypsin 0.9 µM).
With `CC[C@H](C)[C@H](NC(=O)[C@H](CCCCN)NC(=O)CNC(=O)[C@H](CC(C)C)NC(=O)[C@H](Cc1ccccc1)NC(=O)[C@H](CCCCN)NC(=O)[C@H](CO)NC(=O)[C@H](Cc1ccccc1)NC(=O)[C@H](Cc1c[nH]c2ccccc12)NC(=O)[C@H](CCC(N)=O)NC(=O)[C@@H](NC(=O)[C@H](Cc1ccccc1)NC(=O)CCCCCNC(=O)CN1CCN(CC(=O)O)CCN(CC(=O)O)CCN(CC(=O)O)CC1)C(C)C)C(=O)N[C@@H](CCC(=O)O)C(=O)N1CCC[C@H]1C(=O)N[C@@H](CC(=O)O)C(=O)N[C@H](C(=O)N[C@@H](CO)C(=O)N[C@@H](CCC(N)=O)C(=O)N[C@H](C(=O)N[C@@H](CCC(N)=O)C(=O)N[C@@H](CC(=O)O)C(=O)N1CCC[C@H]1C(=O)N[C@@H](CC(N)=O)C(=O)N[C@@H](CC(=O)O)C(=O)N[C@@H](CCC(N)=O)C(=O)N[C@@H](Cc1ccc(O)cc1)C(=O)N[C@@H](CCC(=O)O)C(=O)N1CCC[C@H]1C(=O)N[C@@H](Cc1ccccc1)C(=O)O)C(C)C)C(C)C` [copper-64 labelled] the tissue uptake was 4.58 ± 0.3 %ID/g (C57BL/6 mice, male, tumour-free, blood; 0.5 h).
The log Papp of `CCCCC[C@@H]1OC(=O)[C@@H](C)N(C)C(=O)[C@H](CCCCC)N(C)C(=O)[C@@H](C)N(C)C(=O)[C@H](CCCCC)N(C)C(=O)[C@@H](C)N(C)C(=O)[C@H](CCCCC)N(C)C(=O)[C@@H](C)N(C)C1=O` is reported as 2.88 ×10⁻⁶ cm/s (PAMPA; 500 µM, pH 7.4).
The serum AST of `C=Cc1c(C)c2cc3nc(c(CC(=O)[O-])c4[n-]c(cc5nc(cc1[n-]2)C(C)=C5CC)c(C)c4C(=O)[O-])C(CCC(=O)[O-])C3C.[Cu+2].[Na+].[Na+].[Na+]` (centres unmarked) is reported as 135 ± 31.5 U/L (Wistar rat, male; oral, 1000 mg/kg daily, 28 days).

A few entries again:
With `O=C1NC2(CC2)COc2ncc(F)cc2[C@H]2COCCN2c2ccn3ncc1c3n2` the APTT was 14.1 ± 1.1 s (Sprague-Dawley rats, female, blood; oral, 5 mg/kg/day, end of recovery, 4-week subacute toxicity).
